Measurements gathered from unrelated publications.
Protocols differ between the studies behind these lines. Several values in a cell are separate wells, animals, samples, runs or records.
Target: Calcium/calmodulin-dependent protein kinase type 1D (CAMK1D, Homo sapiens, UniProt Q8IU85)

Compound	test	test system	conditions	how to read	quantity	result
COc1cc(Nc2nccc(-c3cnn4nc(OC)ccc34)n2)cc(C(F)(F)F)c1	binding, competition with immobilised ligand	–	1 µM	–	remaining binding	100%
C=CC(=O)N1CCCC(n2c(=O)c3ncccc3n(Cc3ccc(Oc4ccccc4)cc3)c2=O)C1 (stereo not shown)	thermal proteome profiling	cell proteome	treated	–	melting temperature	52 °C and 41.9 °C
CNC1C[S+]2CC[S+]3CC[S+](C1)[Ru-4]321([N]=C=S)[n]2c3ccc(OC)cc3c3c4c(c5cc(F)c[n+]1c5c32)C(=O)NC4=O (stereo not shown)	KinomeScan	–	0.1 µM	baseline: untreated	remaining binding	31%
CS(=O)(=O)Nc1cccc(-c2csc3cnc(Nc4ccc(N5CCN(CCCCCOc6cccc7c6C(=O)N(C6CCC(=O)NC6=O)C7=O)CC5)cc4)nc23)c1 (stereo not shown)	probe labelling, inhibitor, KiNativ chemoproteomics	MOLT-4	1 µM	–	inhibition	-5.53%
C=CC(=O)N1Cc2nc(-c3cc(-c4cc(Cl)cnc4Cl)c(F)cc3F)n(-c3ccncn3)c2C1	cell-free assay, inhibitor	–	1 µM	–	inhibition	-3.3%
Nc1ncc(-c2cc(-c3cnn(CC(F)(F)F)c3)ncc2F)nc1C(=O)NC1CNCC(F)C1 (stereo not shown)	enzyme activity	–	1 µM	baseline: DMSO control	remaining activity	97.6%
C=CC(=O)Nc1cccc(-c2cnc3[nH]cc(C(=O)NC(C)(C)C)c3n2)c1	kinase activity	–	0.1 µM	–	inhibition	14% and 11%
COc1c(Cl)cccc1Nc1c(-c2ccncc2C#C[C@@]2(C)CCCN2C(=O)/C=C/CN(C)C)[nH]c2c1C(=O)NCC2	cell-free assay, competition with immobilised ligand	–	3 µM	–	remaining binding	82%
NC(=O)[C@@H](O)C[C@H]1CCc2sc3ncnc(O[C@H]4CC[C@H](N5CCOCC5)CC4)c3c21	enzyme activity, inhibitor	–	10 µM	–	inhibition	12%
COCC12C(=O)NC3C4(C(OC)CC1O)C1CC5(O)C(OC)C(O)C(OC(C)=O)(C1C5OC(=O)c1ccccc1)C3(O)C(OC)C24 (stereo not shown)	kinase activity, inhibitor, ProQinase kinase profiling	–	25 µM	baseline: control	remaining activity	104% and 108%
CC(C)=CC1OC(C)(C)C2C=C3C(=O)C(Cl)=CC(O)C3C3C(O)C4OC4C(=O)C132 (stereo not shown)	cell-free assay, competition with immobilised ligand	–	10 µM	–	remaining binding	92%
CN1CCN(Cc2ccc(-c3ccc(CO[C@H]4CCC[C@@H]4NC(=O)c4cc(-c5cnn(C)c5)cnc4N)cc3)cc2)CC1	enzyme activity, inhibitor	–	0.1 µM	–	inhibition	-3%
COc1ccc(NC(=O)Nc2ccc3c(c2)C(=O)N(C(C)CO)CC(C)C(CN(C)Cc2ccc4c(c2)OCO4)O3)cc1 (stereo not shown)	kinase activity	–	0.03 µM	baseline: control	remaining activity	111%
Cc1cccc(O[C@H]2CCC[C@@H](C(C)CNCc3ccncc3)C2)c1 (relative stereo)	enzyme activity, inhibitor	–	10 µM	–	inhibition	-2%
CNC(=O)C1CCN(c2cc(C)c(F)cc2NC(=O)c2ccc(-c3cc(O)ccc3C)c(C)c2)CC1	binding, competition with immobilised ligand	–	1 µM	–	remaining binding	100%
CCN1CCN(Cc2ccc(C(=O)Nc3ccc(C)c(NCc4cnc5[nH]ccc5c4OC)c3)cc2C(F)(F)F)CC1	binding, competition with immobilised ligand	–	1 µM	–	remaining binding	94%
